Measurements of several laboratories.
Each line is one published result; not all experiments were run side by side.
Target: Serine/threonine-protein kinase STK11 (STK11, Homo sapiens, UniProt Q15831)
Residues used in one study (Q15831 1-433): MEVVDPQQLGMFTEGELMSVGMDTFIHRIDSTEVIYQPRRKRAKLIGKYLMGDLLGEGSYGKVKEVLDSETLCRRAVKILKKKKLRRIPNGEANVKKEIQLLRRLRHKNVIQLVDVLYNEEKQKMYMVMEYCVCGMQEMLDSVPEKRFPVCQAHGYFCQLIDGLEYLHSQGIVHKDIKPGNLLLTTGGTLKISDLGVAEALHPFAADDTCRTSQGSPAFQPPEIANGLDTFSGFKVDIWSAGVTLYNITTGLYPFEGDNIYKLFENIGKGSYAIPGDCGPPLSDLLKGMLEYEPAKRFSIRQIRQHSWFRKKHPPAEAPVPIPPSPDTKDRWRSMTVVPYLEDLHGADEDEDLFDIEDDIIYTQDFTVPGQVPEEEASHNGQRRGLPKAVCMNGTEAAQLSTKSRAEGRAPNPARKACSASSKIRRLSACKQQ

Compound | test | test system | setting | how to read | measurement | result
C=CC(=O)Nc1cc(-c2nn(C3CCN(CCNC(=O)[C@H](C)CCC45CC6CC(CC(C6)C4)C5)CC3)c3ncnc(N)c23)ccc1Oc1ccccc1 | inhibitor, KiNativ profiling | biochemical | 2 µM |  | inhibition | 2.7%
CCn1cc(C(=O)O)c(=O)c2c(N)c(F)c(NC3CCCCC3)cc21 | kinase activity |  | 0.1 µM, with: ATP at Km |  | inhibition | 11%
CNC1C[S+]2CC[S+]3CC[S+](C1)[Ru-4]321([N]=C=S)[n]2c3ccc(OC)cc3c3c4c(c5cc(F)c[n+]1c5c32)C(=O)NC4=O (stereo not drawn) | KinomeScan |  | 0.1 µM | relative to: untreated | remaining binding | 100%
COc1cc(Nc2nccc(-c3cnn4nc(OC)ccc34)n2)cc(C(F)(F)F)c1 | binding, competition with immobilised ligand |  | 1 µM |  | remaining binding | 76%
CCN1CCN(Cc2ccc(C(=O)Nc3ccc(C)c(NCc4cnc5[nH]ccc5c4OC)c3)cc2C(F)(F)F)CC1 | binding, competition with immobilised ligand |  | 1 µM |  | remaining binding | 83%
CS(=O)(=O)Nc1cccc(-c2csc3cnc(Nc4ccc(N5CCN(CCCCCOc6cccc7c6C(=O)N(C6CCC(=O)NC6=O)C7=O)CC5)cc4)nc23)c1 (stereo not drawn) | probe labelling, inhibitor, KiNativ chemoproteomics | MOLT-4 | 1 µM |  | inhibition | 1.81%
O=C(Cc1ccc(OCc2ccccc2)cc1)NC1(C(=O)O)CCN(C(=O)c2ccc(-c3cccc(Cl)c3)cc2)CC1 | enzyme activity, inhibitor |  | 10 µM |  | activity vs control | 101%
c1ccc2c(Nc3cc(C4CCC4)[nH]n3)nc(Nc3ccc4nc[nH]c4c3)nc2c1 | enzyme activity, inhibitor |  | 0.25 µM |  | remaining activity | 24%
Cc1nc2c(F)cc(-c3nc(Nc4ccc(CNC(=O)CCCCCCC(=O)NO)cc4)ncc3F)cc2n1C(C)C | enzyme activity, inhibitor |  | 1 µM |  | inhibition | 34%
COc1ccc(NC(=O)Nc2ccc3c(c2)C(=O)N(C(C)CO)CC(C)C(CN(C)Cc2ccc4c(c2)OCO4)O3)cc1 (stereo not drawn) | kinase activity, KinaseProfiler |  | 0.03 µM, species human | relative to: control | remaining activity | 87%
CN1CCN(Cc2ccc(NC(=O)c3cccc(C#Cc4cnc(N)c5ncccc45)c3)cc2C(F)(F)F)CC1 | cell-free assay, competition with immobilised ligand |  | 0.5 µM |  | remaining binding | 61%
NC(=O)C[C@H]1CCc2sc3ncnc(O[C@H]4CC[C@H](N5CCOCC5)CC4)c3c21 | enzyme activity, inhibitor |  | 10 µM |  | inhibition | 2%
C=CC(=O)N1CCc2ccc(-n3c(=O)ccc4cnc5ccc(-c6cnn(C)c6)cc5c43)cc21 | KINOMEscan |  | 1 µM | relative to: DMSO control | remaining binding | 100%
CNC(=O)C[C@H](Cc1ccc(C#N)cc1)NC(=O)c1cc(-c2ccc(CN[C@H](C)c3ccc(C)cc3)o2)ccc1Cl | enzyme activity, inhibitor |  | 1 µM |  | activity vs control | 99%
CC(C)=CC1OC(C)(C)C2C=C3C(=O)C(Cl)=CC(O)C3C3C(O)C4OC4C(=O)C132 (stereo not drawn) | cell-free assay, competition with immobilised ligand |  | 10 µM |  | remaining binding | 100%

For quick reference, copied from above:
Compound | test | test system | setting | how to read | measurement | result
CCN1CCN(Cc2ccc(C(=O)Nc3ccc(C)c(NCc4cnc5[nH]ccc5c4OC)c3)cc2C(F)(F)F)CC1 | binding, competition with immobilised ligand |  | 1 µM |  | remaining binding | 83%
CS(=O)(=O)Nc1cccc(-c2csc3cnc(Nc4ccc(N5CCN(CCCCCOc6cccc7c6C(=O)N(C6CCC(=O)NC6=O)C7=O)CC5)cc4)nc23)c1 (stereo not drawn) | probe labelling, inhibitor, KiNativ chemoproteomics | MOLT-4 | 1 µM |  | inhibition | 1.81%
O=C(Cc1ccc(OCc2ccccc2)cc1)NC1(C(=O)O)CCN(C(=O)c2ccc(-c3cccc(Cl)c3)cc2)CC1 | enzyme activity, inhibitor |  | 10 µM |  | activity vs control | 101%
